Measurements collected from several papers.
Parts stem from different laboratories: compare values within a part only. Changes are numbered by the printed parent chain.

Series 1
Target: Histone acetyltransferase KAT6A, winged helix 1, GST fusion (KAT6A, Homo sapiens, UniProt Q92794, residues 1-85)
Method: protein binding microarray
Form: double-stranded DNA, one strand shown
Sample: in vitro
Concentration: not given
Notes: 8-mer, flanks averaged, mean of 2 arrays, mostly near background
Relative to: not given
Reading: higher = stronger binding
Target sequence (chain): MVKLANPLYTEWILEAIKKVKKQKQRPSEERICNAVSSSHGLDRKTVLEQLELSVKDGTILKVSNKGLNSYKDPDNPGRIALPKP
Strand	E-score
GGTCACCA	-0.145
AATGCGCT	0.231
AGGAGTTA	-0.158
CGCTAGAG	0.174
ACGCTTCG	0.162
GTGGGCAA	-0.203
AAGCTCGA	-0.16
ACTAAGTC	-0.0801
GAGATGAC	-0.0801
AGCCGTTC	0.285
CACTTCGA	-0.197
GCGTCAAA	0.0247
CCTATAAA	-0.123
CACTCAGA	-0.0532
CTTACGGC	0.397
GGAAAGCA	-0.0545

Series 2
Target: CCNE2, cyclin fold, Cln2 fusion (human)
Method: yeast growth competition, sequencing
Sample: yeast
Notes: strong parent motif
Relative to: not given
Reading: higher = stronger binding
Starting sequence: CDC25A docking peptide (human); PPHRRRLLFACSP; partner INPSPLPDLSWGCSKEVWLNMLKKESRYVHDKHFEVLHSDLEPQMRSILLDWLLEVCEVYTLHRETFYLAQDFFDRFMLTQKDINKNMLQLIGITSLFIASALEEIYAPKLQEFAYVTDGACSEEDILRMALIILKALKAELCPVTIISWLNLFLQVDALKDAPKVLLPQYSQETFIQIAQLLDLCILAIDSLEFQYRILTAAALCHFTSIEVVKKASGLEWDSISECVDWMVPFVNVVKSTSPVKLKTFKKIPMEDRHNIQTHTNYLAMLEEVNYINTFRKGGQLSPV
Substitution	normalised enrichment score
A10K	1.67
F9W	1.1
R5G	0.466
P1H	1.7
R4D	0.721
H3K	1.09
P2N	1.93
F9S	1.09
L8G	1.02
C11D	2.37
C11Q	2.34
A10F	1.77
L7M	0.955
F9R	1.54
A10T	3.3
S12D	2.26
L8C	2.4
R6D	0.411
R5W	1.34
P1D	1.03
P2K	1.92
L7V	0.974
R5V	1.49
L7D	0.0953
C11H	2.36

Series 3
Target: Interferon regulatory factor 3, full length, phosphomimetic (IRF3, Homo sapiens, UniProt Q14653, residues 1-427, S386D/S396D/S398D/S402D/T404D/S405D)
Method: protein-binding microarray
Form: double-stranded DNA, one strand shown
Sample: in vitro
Concentration: 2540 nM top
Notes: 60-bp whole probe
With: salmon DNA 0.4 mg/ml
Relative to: random background probes
Reading: higher = stronger binding
Constant ends, left off below: GCCTAGCAC … GTCTTGATTCGCTTGACGCTGCTG
Construct (chain): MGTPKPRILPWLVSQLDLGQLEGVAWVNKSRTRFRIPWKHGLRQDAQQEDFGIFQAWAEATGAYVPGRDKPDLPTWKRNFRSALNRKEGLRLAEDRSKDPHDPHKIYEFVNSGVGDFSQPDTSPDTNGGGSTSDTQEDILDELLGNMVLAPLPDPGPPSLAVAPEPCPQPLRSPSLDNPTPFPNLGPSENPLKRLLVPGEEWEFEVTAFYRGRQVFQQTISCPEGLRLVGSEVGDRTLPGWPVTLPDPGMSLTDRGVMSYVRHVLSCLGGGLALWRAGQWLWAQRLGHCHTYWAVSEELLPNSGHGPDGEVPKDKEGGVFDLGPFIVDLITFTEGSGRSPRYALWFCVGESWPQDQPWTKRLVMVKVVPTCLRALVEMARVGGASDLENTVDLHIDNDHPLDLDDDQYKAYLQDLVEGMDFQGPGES
Strand	fitted relative affinity
TTAGAACTGCGTCTCGATTAGTGCTAG	-0.432 z-score
CTCAAAGTCTTTTATGGTATTGTGCTA	-0.23 z-score
GACGAAATCGGGTTTCGAGACGTGCTA	1.15 z-score
TTAGATTTAAGTTTCGATTAGTGCTAG	3.28 z-score
GACGATATCAATATCGAGACGTGCTAG	0.655 z-score
TTAGGTCTGGGGTTTCGGTTAGTGCTA	1.99 z-score
GACGTTTTCAGTCTCGAGACGTGCTAG	2.93 z-score
TTAGGTATCGGTATCGGATAGTGCTAG	5.18 z-score
TCAGGACTGGGGTTTCGGTTAGTGCTA	2.55 z-score
TCAGCTTTATGTGTAGGACTGTGCTAG	-0.0518 z-score
GACGGTTTCGGGTCCGGGACGTGCTAG	4.95 z-score
TTCGGTATCGACACTGGGTTAGTGCTA	1.01 z-score
GACGCTTCCCTTTTCCTGACGTGCTAG	3.52 z-score
TGAGATTTCGGGTATCGATTAGTGCTA	1.4 z-score
GACTGTATCGGGTATCGGGACGTGCTA	1.71 z-score
TCATCTCTGGTCTTTGTACTGTGCTAG	0.704 z-score

Series 4
Target: PABPC1L2, full length, GST fusion (mouse, UniProt A0ABA7IW68)
Method: RNAcompete
Form: RNA
Sample: in vitro
Concentration: 20 nM
Notes: 7-mer, probes averaged, single round
Relative to: mean of 7-mers
Reading: higher = stronger binding
Construct (chain): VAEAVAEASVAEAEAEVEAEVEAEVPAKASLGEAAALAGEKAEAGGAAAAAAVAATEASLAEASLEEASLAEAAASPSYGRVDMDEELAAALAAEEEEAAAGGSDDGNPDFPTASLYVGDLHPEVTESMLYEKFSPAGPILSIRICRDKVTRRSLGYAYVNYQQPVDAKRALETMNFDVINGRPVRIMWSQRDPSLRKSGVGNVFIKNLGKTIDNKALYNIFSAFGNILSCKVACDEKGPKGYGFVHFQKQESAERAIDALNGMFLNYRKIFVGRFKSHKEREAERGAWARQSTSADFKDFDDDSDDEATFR
Strand	7-mer Z-score
CGCCGGA	-0.161
UCUCAUA	-0.324
UGUCCUG	-0.302
UUCAAGA	-0.13
CUAAGCG	-0.351
CCCCACC	-0.429
UGGUUAU	-0.226
CGCGCUU	-0.255
GCAUGGG	0.0895
GUGUUUC	-0.454
CAACCUA	-0.0844
CGAUAAA	2.35
GUACAUC	-0.0627
AGCGUAG	-0.0754
UUUGUCA	-0.248
UUCUAAC	-0.449
UGCAUUC	-0.251
UUAUACU	-0.376
AAGGAGG	0.352
AGGGACC	0.151
ACUGUCU	-0.34
CUCCUCA	-0.36
GACGUCC	-0.26
CUGAGCC	-0.253
CCCCUAA	-0.22

Series 5
Target: Phosphate system positive regulatory protein PHO4, full length, GST-tagged (PHO4, Saccharomyces cerevisiae, UniProt P07270, residues 1-312)
Method: competition protein-binding microarray
Form: double-stranded DNA, one strand shown
Sample: in vitro
Concentration: 2 µM
Notes: whole 60-bp probe, lowest competitor level
With: Cbf1 competitor, 0.05 µM
Reading: higher = stronger binding
Constant ends, left off below: … GTCTTGATTCGCTTGACGCTGCTG
Target sequence (chain): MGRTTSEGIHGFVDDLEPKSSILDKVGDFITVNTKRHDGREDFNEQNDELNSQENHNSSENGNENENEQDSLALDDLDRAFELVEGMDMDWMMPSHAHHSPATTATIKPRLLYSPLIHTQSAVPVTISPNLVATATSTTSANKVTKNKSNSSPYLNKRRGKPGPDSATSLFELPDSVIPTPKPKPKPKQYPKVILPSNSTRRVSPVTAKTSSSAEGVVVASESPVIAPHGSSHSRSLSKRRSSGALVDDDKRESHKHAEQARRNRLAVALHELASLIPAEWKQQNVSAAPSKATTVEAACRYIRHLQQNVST
Strand	fluorescence intensity [a.u.]
CAGAAGGCAGACCATCACGATTGATAAAGATTAAGC	4810
TCTTGAAGGAAACGTCACCTGCGCTTGCCGATGTCT	3920
TCGTATACTTTATGTCTCGTGGGTATAAAAAGCCAA	8790
AAATTACTAAGTTTTCACGTGCATTACCCCGTATGA	16100
ATCCGCGCCCTTTGGCGTGTTCACCACAGAGTCGCG	4710
CAGCCGCTCGTCACCCGCGTGATGCTGTTTCTGGCG	7210
AACTGCAGGGTCTGGCACGGCAACACAAGGCTATTG	4960
CTTGAGCGAAGCCGTCACATGGACCGGGAAATGGGT	9530
CATACCCAACCTTTTCACGTGGTTTAAGATATTTGT	14900
TCTCTTCTTGGTACCGGCGTGATGGATTTGAAGCTA	5120
CTTTCCCGATCTTGATACGTGGGTGTAGCACATTTG	7670
CTTCTGTAAATTTGCGTCGTGGGTGGACGCGCCCCG	7430
CGTCCTAGTGATTGTCAGGTGGGTGCCATGAGGAAG	8740
TGCGCAACAACTTTTCACGTGCAATTATGTCTAGAA	13600
CTATTTGAAGGCCATCACGATGGTATTTTTCAAGAA	7800
CTTAGAAGGCCGGCCCGCATGATTCAGAAGCAGACC	5140
CTTCTGTAAATTTGCTCTGTGGGTGGACGCGCCCCG	3880
ATTGCTGCTTGCAGCTGCGTGCAAATTTCCATAATC	7440
CGGGGTTAAGTTTGGGCCGTGGGTGGCTTGCAGCAG	5590
